# Results gathered from unrelated publications.
# Protocols differ between the studies behind these lines. ± marks the error that the study gave.
Compound,target,assay,system,setting,IC50
COc1ccc(/C=C/c2cc(O)cc(O[C@@H]3O[C@H](CO)[C@@H](O)[C@H](O)[C@H]3O)c2)cc1O,NF-κB (human),"reporter gene, inhibitor",SW1353,added: PMA,> 25 µg/mL
O=C(NO)c1ccc(CN2c3ccccc3Oc3cc(-c4ccccc4)ccc32)cc1,HeLa nuclear HDACs,"enzyme activity, inhibitor",,added: Boc-Lys(Ac)-AMC,5.71 ± 2.41 µM
O=C(Nc1ccc(Cl)cc1)C1CCN(Cc2ccccc2)C1 (centres unmarked),"Nav1.4, Pelophylax lessonae","sodium current, use-dependent blocker, vaseline gap voltage clamp",skeletal muscle fibres,10 Hz pulse trains,11.9 ± 1 µM
O=C(NO)c1ccc(CN2c3ccccc3Oc3cc(C(=O)Nc4ccccc4)ccc32)cc1,HeLa nuclear HDACs,"enzyme activity, inhibitor",,added: Boc-Lys(Ac)-AMC,0.24 ± 0.04 µM
CC(C)(O)C(O)Cc1c(O)cc(/C=C/c2ccccc2)cc1O (centres unmarked),NF-κB (human),"reporter gene, inhibitor",SW1353,added: PMA,> 25 µg/mL
Cc1c(C)c(NC(=O)C2CCN(Cc3ccccc3)C2)c(C)c(C)c1Cl (centres unmarked),"Nav1.4, Pelophylax lessonae","sodium current, use-dependent blocker, vaseline gap voltage clamp",skeletal muscle fibres,2 Hz pulse trains,16.2 ± 1.6 µM
NCc1cccc(C2CCN(C(=O)c3cccc(OCC(O)C4(O)CCC4)c3)CC2)c1 (centres unmarked),"tryptase, human","enzyme activity, inhibitor",HMC1,"2 h, added: A23187 1 µM",10.8 µM
O=C(/C=C/c1ccc(Cn2cc(Cn3cnc4ccc(I)cc4c3=O)nn2)cc1)NO,HDAC,"enzyme activity, inhibitor, fluorogenic",HeLa nuclear extract,"30 min, 37 °C",1.03 µM
COc1cc(/C=C/c2ccccc2)cc(OC)c1,NF-κB (human),"reporter gene, inhibitor",SW1353,added: PMA,> 25 µg/mL
O=C(/C=C/c1ccc(Cn2cc(Cn3cnc4ccccc4c3=O)nn2)cc1)NO,HDAC,"enzyme activity, inhibitor, fluorogenic",HeLa nuclear extract,"30 min, 37 °C",0.958 µM
COc1cccc(CCc2ccc(O)cc2)c1,NF-κB (human),"reporter gene, inhibitor",SW1353,added: PMA,> 25 µg/mL
O=C(/C=C/c1ccc(Cn2cc(Cn3cnc4ccc(Cl)cc4c3=O)nn2)cc1)NO,HDAC,"enzyme activity, inhibitor, fluorogenic",HeLa nuclear extract,"30 min, 37 °C",0.234 µM
Cc1cccc(C)c1NC(=O)C1CN(Cc2ccccc2)CCN1 (centres unmarked),"Nav1.4, Pelophylax lessonae","sodium current, use-dependent blocker, vaseline gap voltage clamp",skeletal muscle fibres,2 Hz pulse trains,8.9 ± 1.3 µM
O=C(NO)c1ccc(Cn2cc(Cn3cnc4ccc(F)cc4c3=O)nn2)cc1,HDAC,"enzyme activity, inhibitor, fluorogenic",HeLa nuclear extract,"30 min, 37 °C",0.263 µM
N=C(N)c1ccc(OCCCCCOc2ccc(C(=N)N)cc2)cc1,r(CUG)12 RNA-MBNL1 complex,"MBNL1 displacement from r(CUG)12 RNA, inhibitor, qTR-FRET",,,> 1000 µM
c1cnc(NCCCn2ccnc2)cn1,Fe-SOD (Leishmania braziliensis),inhibitor,Leishmania braziliensis,promastigotes,0.09 µM
Oc1cccc(/C=C/c2ccccc2)c1,NF-κB (human),"reporter gene, inhibitor",SW1353,added: PMA,> 25 µg/mL
CN[C@H]1[C@@H](O)[C@@H](NC)C(=O)[C@H]2O[C@@H]3O[C@H](C)C[C@@H](NC(=O)Cc4ccc(O)cn4)[C@]3(O)O[C@H]12,Mycolicibacterium smegmatis 70S ribosome,"cell-free translation, inhibitor, item: firefly luciferase",,,34.7 µg/mL
Cc1ccc(S(=O)(=O)N[C@@H](CCCCN)C(=O)CCl)cc1,E3 Blattella germanica protease,covalent inhibitor,,"1 h preincubation, added: QAR-AMC",0.8 ± 0.2 µM
Cc1cccc(C)c1NC(=O)C1CCCN1Cc1ccccc1 (racemic),"Nav1.4, Pelophylax lessonae","sodium current, use-dependent blocker, vaseline gap voltage clamp",skeletal muscle fibres,2 Hz pulse trains,49.7 ± 7.6 µM
O=C(/C=C/c1ccc(Cn2cc(Cn3cnc4cc(Br)ccc4c3=O)nn2)cc1)NO,HDAC,"enzyme activity, inhibitor, fluorogenic",HeLa nuclear extract,"30 min, 37 °C",0.36 µM
Cc1cccc(C)c1NC(=O)C1CCCCN1Cc1ccccc1 (centres unmarked),"Nav1.4, Pelophylax lessonae","sodium current, use-dependent blocker, vaseline gap voltage clamp",skeletal muscle fibres,2 Hz pulse trains,98.4 ± 7.5 µM
Oc1cc(O)cc(/C=C/c2ccccc2)c1,NF-κB (human),"reporter gene, inhibitor",SW1353,added: PMA,14.5 µg/mL
